# Assay results pooled from the literature.
# ± marks the error that the study gave.
# Sequence of UniProt P56817 (whole entry, looked up): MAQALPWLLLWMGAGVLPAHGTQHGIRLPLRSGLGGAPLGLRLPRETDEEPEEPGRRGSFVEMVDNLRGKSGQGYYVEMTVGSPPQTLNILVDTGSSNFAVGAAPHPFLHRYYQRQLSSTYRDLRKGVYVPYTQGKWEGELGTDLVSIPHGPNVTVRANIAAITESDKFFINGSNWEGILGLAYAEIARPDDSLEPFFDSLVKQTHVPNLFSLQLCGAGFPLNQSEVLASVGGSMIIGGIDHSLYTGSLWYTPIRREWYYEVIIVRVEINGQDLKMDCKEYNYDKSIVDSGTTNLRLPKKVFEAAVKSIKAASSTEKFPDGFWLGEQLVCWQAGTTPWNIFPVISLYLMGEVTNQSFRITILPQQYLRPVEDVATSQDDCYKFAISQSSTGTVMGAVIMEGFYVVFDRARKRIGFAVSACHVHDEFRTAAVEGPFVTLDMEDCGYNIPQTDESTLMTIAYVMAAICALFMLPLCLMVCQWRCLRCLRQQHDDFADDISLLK
# Sequence of UniProt C7FF04 (whole entry, looked up): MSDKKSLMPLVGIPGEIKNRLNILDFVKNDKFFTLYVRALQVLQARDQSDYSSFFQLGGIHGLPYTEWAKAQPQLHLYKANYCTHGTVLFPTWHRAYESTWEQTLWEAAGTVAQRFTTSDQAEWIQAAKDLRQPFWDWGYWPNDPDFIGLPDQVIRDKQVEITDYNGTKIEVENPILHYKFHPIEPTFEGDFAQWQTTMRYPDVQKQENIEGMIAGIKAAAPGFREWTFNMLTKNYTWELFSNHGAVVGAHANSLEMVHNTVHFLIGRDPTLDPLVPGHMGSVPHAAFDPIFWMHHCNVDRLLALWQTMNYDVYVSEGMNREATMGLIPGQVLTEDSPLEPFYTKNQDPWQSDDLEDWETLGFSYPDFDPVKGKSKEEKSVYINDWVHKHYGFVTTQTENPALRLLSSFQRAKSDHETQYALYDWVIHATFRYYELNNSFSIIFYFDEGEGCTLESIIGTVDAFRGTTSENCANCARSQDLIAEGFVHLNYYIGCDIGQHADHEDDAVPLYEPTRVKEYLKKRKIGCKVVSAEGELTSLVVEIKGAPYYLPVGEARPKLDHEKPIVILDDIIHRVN
# Sequence of UniProt P97612 (whole entry, looked up): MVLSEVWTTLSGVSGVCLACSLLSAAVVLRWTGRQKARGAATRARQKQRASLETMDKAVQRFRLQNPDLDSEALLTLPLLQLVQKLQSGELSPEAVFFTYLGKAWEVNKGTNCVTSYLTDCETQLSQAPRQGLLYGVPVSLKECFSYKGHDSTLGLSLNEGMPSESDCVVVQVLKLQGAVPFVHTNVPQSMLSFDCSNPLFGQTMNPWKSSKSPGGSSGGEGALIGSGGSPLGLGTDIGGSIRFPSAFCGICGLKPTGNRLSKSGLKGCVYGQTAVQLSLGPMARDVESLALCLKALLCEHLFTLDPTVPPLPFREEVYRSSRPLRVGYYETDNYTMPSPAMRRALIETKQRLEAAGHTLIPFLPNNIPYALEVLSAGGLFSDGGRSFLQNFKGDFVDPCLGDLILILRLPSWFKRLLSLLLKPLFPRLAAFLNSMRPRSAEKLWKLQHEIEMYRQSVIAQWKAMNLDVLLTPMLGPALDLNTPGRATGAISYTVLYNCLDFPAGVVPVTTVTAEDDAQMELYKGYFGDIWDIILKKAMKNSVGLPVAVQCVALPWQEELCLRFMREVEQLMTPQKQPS
# Sequence of UniProt O43148 (whole entry, looked up): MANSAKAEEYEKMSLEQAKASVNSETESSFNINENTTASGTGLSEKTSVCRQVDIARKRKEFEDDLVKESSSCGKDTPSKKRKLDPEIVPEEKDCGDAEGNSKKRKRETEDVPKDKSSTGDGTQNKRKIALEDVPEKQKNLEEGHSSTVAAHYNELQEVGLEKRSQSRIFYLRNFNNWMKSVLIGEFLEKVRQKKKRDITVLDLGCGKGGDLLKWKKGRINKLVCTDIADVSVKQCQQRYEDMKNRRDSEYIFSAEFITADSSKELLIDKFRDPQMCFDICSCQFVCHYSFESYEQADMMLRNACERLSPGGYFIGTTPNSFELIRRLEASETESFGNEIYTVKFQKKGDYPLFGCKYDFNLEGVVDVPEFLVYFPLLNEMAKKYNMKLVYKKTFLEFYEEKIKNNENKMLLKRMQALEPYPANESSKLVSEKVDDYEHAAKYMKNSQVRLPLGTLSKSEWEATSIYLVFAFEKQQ
# Sequence of UniProt P08684 (whole entry, looked up): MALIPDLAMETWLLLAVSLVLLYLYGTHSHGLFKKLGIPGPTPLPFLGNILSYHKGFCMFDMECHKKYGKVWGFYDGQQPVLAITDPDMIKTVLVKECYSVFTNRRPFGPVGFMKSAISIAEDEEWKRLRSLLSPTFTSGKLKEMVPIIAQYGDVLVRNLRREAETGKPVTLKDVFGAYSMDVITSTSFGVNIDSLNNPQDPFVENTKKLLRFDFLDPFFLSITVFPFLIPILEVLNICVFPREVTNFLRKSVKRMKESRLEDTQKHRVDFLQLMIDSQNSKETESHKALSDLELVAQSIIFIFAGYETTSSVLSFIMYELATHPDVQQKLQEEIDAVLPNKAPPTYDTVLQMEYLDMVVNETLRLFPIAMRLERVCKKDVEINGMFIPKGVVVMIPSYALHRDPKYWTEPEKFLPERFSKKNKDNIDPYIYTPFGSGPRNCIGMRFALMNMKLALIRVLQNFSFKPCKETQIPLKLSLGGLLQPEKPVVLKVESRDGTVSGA
# Sequence of UniProt Q9NR22 (whole entry, looked up): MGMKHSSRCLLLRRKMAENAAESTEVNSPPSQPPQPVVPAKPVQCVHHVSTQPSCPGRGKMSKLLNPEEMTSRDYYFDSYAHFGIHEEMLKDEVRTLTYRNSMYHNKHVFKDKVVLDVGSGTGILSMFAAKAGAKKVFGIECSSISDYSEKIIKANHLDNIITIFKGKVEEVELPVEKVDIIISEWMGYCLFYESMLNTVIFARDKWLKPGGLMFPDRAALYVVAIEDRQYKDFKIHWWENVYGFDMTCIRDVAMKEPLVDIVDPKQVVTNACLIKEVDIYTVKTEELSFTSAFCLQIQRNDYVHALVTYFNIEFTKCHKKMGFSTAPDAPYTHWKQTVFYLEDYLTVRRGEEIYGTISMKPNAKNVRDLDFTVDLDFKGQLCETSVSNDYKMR
# Sequence of UniProt P34975 (whole entry, looked up): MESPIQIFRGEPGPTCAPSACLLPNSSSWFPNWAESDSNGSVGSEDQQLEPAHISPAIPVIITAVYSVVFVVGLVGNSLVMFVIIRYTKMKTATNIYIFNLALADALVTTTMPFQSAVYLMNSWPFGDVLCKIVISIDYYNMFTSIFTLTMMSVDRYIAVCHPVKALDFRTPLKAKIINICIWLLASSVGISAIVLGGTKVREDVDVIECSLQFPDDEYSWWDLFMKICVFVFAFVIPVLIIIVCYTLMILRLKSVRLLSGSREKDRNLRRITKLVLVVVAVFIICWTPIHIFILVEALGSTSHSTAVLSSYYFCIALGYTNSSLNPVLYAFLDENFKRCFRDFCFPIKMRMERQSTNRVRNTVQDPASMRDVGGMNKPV
# Sequence of UniProt Q04759 (whole entry, looked up): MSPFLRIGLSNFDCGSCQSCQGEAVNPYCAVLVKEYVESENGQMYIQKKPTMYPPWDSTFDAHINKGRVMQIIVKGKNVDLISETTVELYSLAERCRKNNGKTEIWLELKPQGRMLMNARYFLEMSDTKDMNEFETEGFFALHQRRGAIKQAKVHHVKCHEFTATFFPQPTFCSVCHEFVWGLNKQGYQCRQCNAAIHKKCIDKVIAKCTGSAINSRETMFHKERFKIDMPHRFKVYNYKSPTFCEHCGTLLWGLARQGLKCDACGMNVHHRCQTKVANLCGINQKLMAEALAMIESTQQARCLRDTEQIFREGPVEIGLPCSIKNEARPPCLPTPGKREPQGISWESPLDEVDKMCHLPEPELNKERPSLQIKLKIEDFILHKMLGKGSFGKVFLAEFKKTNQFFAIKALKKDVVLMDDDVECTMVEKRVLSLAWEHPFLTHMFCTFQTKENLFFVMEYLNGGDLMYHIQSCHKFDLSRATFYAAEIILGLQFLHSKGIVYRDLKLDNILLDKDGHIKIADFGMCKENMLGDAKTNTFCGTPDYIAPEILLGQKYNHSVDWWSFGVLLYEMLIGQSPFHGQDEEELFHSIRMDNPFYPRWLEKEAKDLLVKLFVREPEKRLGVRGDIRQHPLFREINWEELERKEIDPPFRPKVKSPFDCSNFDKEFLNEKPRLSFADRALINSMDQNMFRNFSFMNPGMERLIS
# Sequence of UniProt P15056 (whole entry, looked up): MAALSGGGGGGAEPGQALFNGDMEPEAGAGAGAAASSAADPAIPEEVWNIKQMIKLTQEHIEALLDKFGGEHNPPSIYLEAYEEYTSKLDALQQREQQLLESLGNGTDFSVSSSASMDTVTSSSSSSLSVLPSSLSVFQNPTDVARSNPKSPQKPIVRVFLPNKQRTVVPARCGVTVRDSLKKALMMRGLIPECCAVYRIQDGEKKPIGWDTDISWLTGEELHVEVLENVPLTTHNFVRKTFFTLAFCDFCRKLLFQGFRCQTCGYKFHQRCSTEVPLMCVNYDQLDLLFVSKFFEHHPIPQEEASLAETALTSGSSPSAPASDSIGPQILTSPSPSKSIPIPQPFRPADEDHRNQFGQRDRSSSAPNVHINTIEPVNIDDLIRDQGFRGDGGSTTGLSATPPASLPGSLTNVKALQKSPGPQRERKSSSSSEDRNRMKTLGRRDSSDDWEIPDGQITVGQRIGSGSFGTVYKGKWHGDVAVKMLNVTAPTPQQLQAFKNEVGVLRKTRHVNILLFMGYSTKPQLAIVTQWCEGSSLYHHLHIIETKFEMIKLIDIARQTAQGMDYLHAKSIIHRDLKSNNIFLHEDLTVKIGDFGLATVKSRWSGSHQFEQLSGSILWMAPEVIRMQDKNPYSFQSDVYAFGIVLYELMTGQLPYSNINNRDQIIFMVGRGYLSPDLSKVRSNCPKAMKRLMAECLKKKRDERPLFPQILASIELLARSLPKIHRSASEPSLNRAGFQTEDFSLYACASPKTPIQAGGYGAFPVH
SMILES,target,test,system,setting,IC50
NC[C@@H]1[C@@H](O)[C@@H](O)[C@H]2[C@@H](O)CCCN21,"Alpha-mannosidase 2 (Homo sapiens, UniProt Q16706)","enzyme activity, inhibitor, 4-MU fluorogenic",,with: Man-α-4MU 5 mM,48 µM
CC[C@H](C)[C@@H]1NC(=O)[C@H](Cc2ccccc2)NC(=O)[C@H](CC(N)=O)NC(=O)[C@@H](NC(=O)[C@@H](NC(=O)[C@H](CO)NC(=O)[C@@H](N)Cc2ccc(O)cc2)[C@@H](C)O)CSC(=O)[C@H](CCSC)NC1=O,"Accessory gene regulator protein C (Staphylococcus aureus, UniProt Q309Z2)",,,,0.0028 µM
NNC(=O)c1ccc(-n2nc(-c3ccccc3O)nc2-c2ccccc2O)cc1,5-lipoxygenase,,,,12.7 ± 2.09 µM
O=C(C[P+]([Au-][Cl])(c1ccccc1)c1ccccc1)[O][Ti+2][O]C(=O)C[P+]([Au-][Cl])(c1ccccc1)c1ccccc1.c1cc[cH-]c1.c1cc[cH-]c1,"PRKCQ (Homo sapiens, UniProt Q04759)","enzyme activity, inhibitor, radiometric",,,11.6 µM
C[C@]1(COC(=O)Cc2ccc(O)c(O)c2)[C@H](C(=O)O)N2C(=O)/C(=C/c3ccccn3)[C@H]2S1(=O)=O,"OXA-23 (Acinetobacter baumannii, UniProt Q9L4P2)",inhibitor,,with: nitrocefin,0.012 ± 0.008 µM
O=C(NCCN1CCC2(CC1)C(=O)NCN2Cc1ccncc1)c1ccc2ccccc2c1,"Phospholipase D2 (Homo sapiens, UniProt O14939)","enzyme activity, inhibitor",,,0.85 µM
O=C(NCCCCn1ccc2ccccc21)Oc1ccccc1,"Faah (Rattus norvegicus, UniProt P97612)",,rat brain homogenate,"60 min, 37 °C",0.53 µM
O=C(O)/C=C/c1ccc(O)cc1,α-amylase,"inhibitor, DNS",,,85 µg/mL
CO[C@@H]1C[C@@H](C(=O)N[C@H](C)CCC(N)=O)N(C(=O)[C@H](CC(C)C)NC(=O)/C=C(\C)c2ccc(OP(=O)(O)O)cc2)C1,"STAT3 (Homo sapiens, UniProt P40763)","phosphopeptide binding, inhibitor, fluorescence polarization",,,0.317 ± 0.014 µM
CN(C)CCCOc1ccc(C2Sc3ccccc3NC3=C2C(=O)c2ccccc23)cc1 (racemic),"MT-CYB, bc1 complex (Plasmodium falciparum, UniProt Q02768)","enzyme activity, inhibitor",purified mitochondrial fractions,,1.08 ± 0.084 µM
COc1ccc(C(=O)CCl)cc1,"Fosb/Jund, ΔFosB isoform (Mus musculus, UniProt P13346+P15066)","ΔFOSB/JUND DNA binding, fluorescence polarization",,"15 min, with: TMR-cdk5 oligonucleotide",> 200 µM
O=C(/C=C/c1ccc(O)cc1)c1ccc(N2CCNCC2)cc1,"Beta-secretase 1 (BACE1, Homo sapiens, UniProt P56817)","enzyme activity, inhibitor, fluorescence",,with preincubation,9.86 µM
CC(C)[C@H](NC(=O)c1ccc(CNc2nc3c(c(=O)[nH]2)CCC3)cc1)C(=O)NC1CNC1,"MMP14 (Homo sapiens, UniProt P50281)","enzyme activity, inhibitor",,,> 5 µM
C[C@H]1CN(c2nnnc3c2sc2nc(N4CCOCC4)c4c(c23)CCCC4)CCN1,"Beta-glucuronidase (Streptococcus agalactiae serotype V, UniProt Q8E0N2)",,Streptococcus agalactiae,,1.9 ± 0.4 µM
Cc1ccc2nc(C)c(C(=O)NCc3cccs3)n2c1,"Cytochrome P450 3A4 (CYP3A4, Homo sapiens, UniProt P08684)","enzyme activity, inhibitor",,with: VG substrate,9.8 µM
COC(=O)C=CCCC(NC(=O)c1ccncc1C(=O)O)C(=O)NC(C(=O)N1CC(=O)CC1C(=O)NC(C(=O)NC(C(N)=O)C1CCCCC1)C1CCCCC1)C(C)(C)C (centres unmarked),"Protein-glutamine gamma-glutamyltransferase K (Homo sapiens, UniProt P22735)","enzyme activity, inhibitor",,,11 µM
O=C(O)c1cccc(Nc2nc(-c3cccnc3)nc3ccccc23)c1,"ACP3 (Homo sapiens, UniProt P15309)","enzyme activity, inhibitor",,,8 µM
CC(C)C[C@H](NC(=O)CN)C(=O)N[C@@H](CC(=O)O)C(=O)N[C@@H](CC(N)=O)C(=O)N[C@@H](Cc1ccc(O)cc1)C(=O)N[C@@H](CCCNC(=N)N)C(=O)NCC(=O)N[C@@H](Cc1ccc(O)cc1)C(=O)N[C@@H](CO)C(=O)N[C@@H](CC(C)C)C(=O)NCC(=O)N[C@@H](CC(N)=O)C(N)=O,"MHC class II I-A g7 (Mus musculus, UniProt P04228+Q31135)","peptide binding, competitor, competition ELISA",,"at least 24 h, pH 7.0, room temperature, with: biotinylated HEL 10-23 200 nM",> 50 µM
CC(C)c1ccc(C(=O)Nc2ccc(CN3CCN(C)CC3)c(C(F)(F)F)c2)cc1C#Cc1cnc2cccnn12,"RIPK3 (Homo sapiens, UniProt Q9Y572)","enzyme activity, inhibitor, ADP detection",,,0.46 µM
Nc1ncnc2c1ncn2[C@@H]1O[C@H](CSCCNC(=O)NCCc2ccccc2)[C@@H](O)[C@H]1O,"PRMT8 (Homo sapiens, UniProt Q9NR22)","enzyme activity, inhibitor, radiometric",,,> 50 µM
CCCC[C@H]1C(=O)N(C)[C@@H](CCCC)C(=O)N[C@@H](CC(C)C)C(=O)N[C@H](C(=O)NCC(N)=O)CSCC(=O)N[C@@H](Cc2ccc(O)cc2)C(=O)N2CCC[C@H]2C(=O)N[C@@H](CC(N)=O)C(=O)N2[C@@H](C[C@@H]3CCCC[C@@H]32)C(=O)N[C@@H](CN)C(=O)N[C@@H](CC(C)C)C(=O)N2C[C@H](O)C[C@H]2C(=O)N[C@@H](Cc2c[nH]c3ccccc23)C(=O)N[C@@H](CCN)C(=O)N[C@@H](Cc2cn(CC(=O)O)c3ccccc23)C(=O)N1C,"CD274 (Homo sapiens, UniProt Q9NZQ7)","inhibitor, TR-FRET",,,0.0186 µM
O=C1NC(=S)NC(=O)C1=Cc1ccc(-c2cccc([N+](=O)[O-])c2)o1,"BRAF (Homo sapiens, UniProt P15056)","enzyme activity, inhibitor, ELISA",,,6.6 µM
CCCC[C@H](NC(C)=O)C(=O)N1CCC[C@H]1C(=O)N[C@@H](CO)C(=O)N[C@@H](CO)C(=O)N[C@@H](C)C(=O)N[C@]1(C)CCCCCCC=CCCC[C@@](C)(C(=O)N[C@@H](CC(C)C)C(=O)N[C@@H](CCCCN)C(=O)N[C@@H](CCC(=O)O)C(=O)N[C@H](C(=O)N[C@@H](CCC(N)=O)C(N)=O)[C@@H](C)CC)NC(=O)[C@H](CCCCN)NC(=O)[C@H](CCCNC(=N)N)NC(=O)[C@H](CC(C)C)NC(=O)[C@H](CC(C)C)NC(=O)[C@H](CCC(N)=O)NC(=O)[C@H](CCCNC(=N)N)NC1=O,"UBA1 (Homo sapiens, UniProt P22314)","enzyme activity, inhibitor",,,96.2 µM
CC[C@H](C)[C@H](NC(=O)[C@@H](N)Cc1ccc(O)cc1)C(=O)N[C@@H](Cc1ccccc1)C(=O)N[C@@H](CC(N)=O)C(=O)N[C@@H](CC(C)C)C(=O)O,"Oprk1 (Rattus norvegicus, UniProt P34975)","radioligand binding, inhibitor",rat brain membranes,with: [3H]U69593,0.000185 ± 1.1e-15 µM
CC(=O)N[C@H]1CSC(=O)[C@H](Cc2ccccc2)NC(=O)[C@H](CC(C)C)NC(=O)[C@H](CO)NC(=O)[C@H](CO)NC1=O,"accessory gene regulator protein C (Staphylococcus aureus, UniProt O33587)",,,,0.0775 µM
CC(C)C[C@H](NC(=O)[C@H](CCC(=O)O)NC(=O)[C@@H](N)CS)C(=O)N[C@@H](CC(N)=O)C(=O)O,"PPO3 (Agaricus bisporus, UniProt C7FF04)","enzyme activity, inhibitor",,,233 µM
CC(C)C[C@@H]1NC(=O)[C@H](CCCNC(=N)N)NC(=O)[C@H](CCCCN)NC(=O)[C@H](CC(=O)O)NC(=O)[C@H](CCCCN)NC(=O)[C@@H](CO)NC1=O,"ADAM17 (Homo sapiens, UniProt P78536)","enzyme activity, inhibitor, fluorescence",,,> 10 µM
O=C(CCCCCCC(=O)Nc1cccc(N=Nc2ccccc2)c1)NO,"HDAC2 (Homo sapiens, UniProt Q92769)","enzyme activity, inhibitor",,"cis isomer, irradiated",0.056 ± 0.012 µM
CC(=O)CCC1C(=O)NC(C(C)C)C(=O)NC(Cc2cccc(O)c2)C(=O)N2CCCC(N2)C(=O)OC(C(C)=CC=CC(=O)N2CCCCO2)CC=CC=CC(O)C(C)C1O (centres unmarked),"SLCO1B3 (Homo sapiens, UniProt Q9NPD5)","transporter uptake, inhibitor",CHO,pH 7.3,5.4 µM
CC1C(=NNC(=O)c2ccncc2)C(C)C(c2ccc(Br)cc2)OC1c1ccc(Br)cc1 (centres unmarked),"gyrB (Escherichia coli, UniProt P0AES6)","ATPase activity, inhibitor",,,4.98 µM
O=P(O)(O)CNCc1ccccc1,"Urease subunit alpha (Sporosarcina pasteurii, UniProt P41020)","enzyme activity, inhibitor, indophenol colorimetric",,"20 min, pH 7.0, 37 °C, with: 50 mM urea",> 1000 µM
O=C(O)CN(CCO)CCO,IMP-28 metallo-beta-lactamase,"enzyme activity, inhibitor, FC5 fluorescent substrate",,"60 pM enzyme, 1 µM ZnSO4",> 200 µM
Cc1cc(C)nc(Sc2nc3sccn3c2[N+](=O)[O-])n1,"Genome polyprotein, 3C protease (rhinovirus B14, UniProt P03303)","3C protease activity, SAMDI-MS",human rhinovirus,,4.94 µM
NC(=S)N/N=C/c1ccccc1O,"SOD1 (Homo sapiens, UniProt P00441)","enzyme activity, inhibitor",HeLa,24 h,1.36 µM
C1CCN(c2nnnc3c2sc2nc(N4CCOCC4)c4c(c23)CCCC4)CC1,"Beta-glucuronidase (uidA, Escherichia coli, UniProt P05804)","enzyme activity, inhibitor, absorbance",,pH 7.5,> 100 µM
CC[C@H](C)[C@@H]1NC(=O)[C@H](Cc2c[nH]c3ccccc23)NC(=O)CNC(=O)c2cc3cc(c2)C(=O)NC[C@H](NC(=O)[C@@H](C)NC(=O)[C@H](Cc2ccc(O)cc2)NC1=O)C(=O)N[C@@H](Cc1ccccc1)C(=O)N[C@@H](Cc1ccc2ccccc2c1)C(=O)N[C@@H](CCCNC(=N)N)C(=O)N[C@H](CCCNC(=N)N)C(=O)N[C@@H](CCCNC(=N)N)C(=O)N[C@H](C(=O)NCCC(=O)NCCC(=O)N[C@@H](CCCCN)C(N)=O)CNC3=O,"NF-kappa-B essential modulator, with IKK-beta (IKBKG, Homo sapiens, UniProt Q9Y6K9)","inhibitor, HTRF",,,2.9 ± 0.1 µM
NCCCC[C@H](NC(=O)[C@H](Cc1c[nH]c2ccccc12)NC(=O)[C@H](CCCCN)NC(=O)CNC(=O)CCC(=O)NN)C(N)=O,"Tryptase beta-2 (TPSB2, Homo sapiens, UniProt P20231)",,,pH 7.4,62.6 ± 6.86 µM
O=C(O[C@@H]1Cc2c(O)cc(O)cc2O[C@@H]1c1cc(O)c(O)c(O)c1)c1cc(O)c(O)c(O)c1,"mRNA cap guanine-N(7) methyltransferase, with RAM (RNMT, Homo sapiens, UniProt O43148)","N7-methyltransferase activity, inhibitor, Py-FLINT",,"RNMT-RAM complex, with: SAM 20 µM",3.61 ± 0.7 µM

# A few entries again:
SMILES,target,test,system,setting,IC50
O=C(C[P+]([Au-][Cl])(c1ccccc1)c1ccccc1)[O][Ti+2][O]C(=O)C[P+]([Au-][Cl])(c1ccccc1)c1ccccc1.c1cc[cH-]c1.c1cc[cH-]c1,"PRKCQ (Homo sapiens, UniProt Q04759)","enzyme activity, inhibitor, radiometric",,,11.6 µM
NC(=S)N/N=C/c1ccccc1O,"SOD1 (Homo sapiens, UniProt P00441)","enzyme activity, inhibitor",HeLa,24 h,1.36 µM
CC(C)[C@H](NC(=O)c1ccc(CNc2nc3c(c(=O)[nH]2)CCC3)cc1)C(=O)NC1CNC1,"MMP14 (Homo sapiens, UniProt P50281)","enzyme activity, inhibitor",,,> 5 µM
